Experimental data from different studies.
A part holds a random share of what one study measured.
Chain of UniProt Q93WC4 (whole entry, looked up): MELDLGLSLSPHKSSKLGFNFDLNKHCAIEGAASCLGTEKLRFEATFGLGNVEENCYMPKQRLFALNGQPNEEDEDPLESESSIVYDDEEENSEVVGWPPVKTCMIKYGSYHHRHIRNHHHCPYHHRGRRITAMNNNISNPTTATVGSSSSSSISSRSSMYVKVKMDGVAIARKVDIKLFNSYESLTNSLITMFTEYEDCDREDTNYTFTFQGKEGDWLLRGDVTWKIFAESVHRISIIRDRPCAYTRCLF
Chain of UniProt Q8RYC8 (whole entry, looked up): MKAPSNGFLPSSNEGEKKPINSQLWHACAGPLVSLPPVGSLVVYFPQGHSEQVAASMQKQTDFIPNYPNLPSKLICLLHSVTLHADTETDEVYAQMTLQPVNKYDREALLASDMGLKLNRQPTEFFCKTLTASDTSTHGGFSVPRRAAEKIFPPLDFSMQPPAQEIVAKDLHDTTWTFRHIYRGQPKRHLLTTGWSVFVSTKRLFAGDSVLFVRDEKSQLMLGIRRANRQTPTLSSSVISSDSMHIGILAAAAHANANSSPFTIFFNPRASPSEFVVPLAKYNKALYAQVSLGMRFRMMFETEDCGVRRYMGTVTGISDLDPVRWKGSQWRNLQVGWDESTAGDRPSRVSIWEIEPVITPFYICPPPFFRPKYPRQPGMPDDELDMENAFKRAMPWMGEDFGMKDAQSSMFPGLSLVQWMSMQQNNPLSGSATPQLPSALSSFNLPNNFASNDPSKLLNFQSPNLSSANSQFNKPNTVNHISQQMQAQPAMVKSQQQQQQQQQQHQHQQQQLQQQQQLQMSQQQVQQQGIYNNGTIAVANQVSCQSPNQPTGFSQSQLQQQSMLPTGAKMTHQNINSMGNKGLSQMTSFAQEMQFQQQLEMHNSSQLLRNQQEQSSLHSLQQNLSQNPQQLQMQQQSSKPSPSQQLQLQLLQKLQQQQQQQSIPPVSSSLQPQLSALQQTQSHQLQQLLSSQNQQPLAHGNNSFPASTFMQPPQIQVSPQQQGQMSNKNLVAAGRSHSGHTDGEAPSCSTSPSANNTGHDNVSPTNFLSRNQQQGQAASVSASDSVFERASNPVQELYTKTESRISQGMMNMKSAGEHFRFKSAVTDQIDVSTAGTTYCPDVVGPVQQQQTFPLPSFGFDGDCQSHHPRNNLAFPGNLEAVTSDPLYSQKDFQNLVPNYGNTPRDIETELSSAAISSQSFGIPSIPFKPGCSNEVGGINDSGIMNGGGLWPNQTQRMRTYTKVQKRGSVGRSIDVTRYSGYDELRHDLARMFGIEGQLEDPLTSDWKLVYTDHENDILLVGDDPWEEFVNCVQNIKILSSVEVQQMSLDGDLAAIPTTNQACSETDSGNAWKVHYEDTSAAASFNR
Chain of UniProt Q84WU6 (whole entry, looked up): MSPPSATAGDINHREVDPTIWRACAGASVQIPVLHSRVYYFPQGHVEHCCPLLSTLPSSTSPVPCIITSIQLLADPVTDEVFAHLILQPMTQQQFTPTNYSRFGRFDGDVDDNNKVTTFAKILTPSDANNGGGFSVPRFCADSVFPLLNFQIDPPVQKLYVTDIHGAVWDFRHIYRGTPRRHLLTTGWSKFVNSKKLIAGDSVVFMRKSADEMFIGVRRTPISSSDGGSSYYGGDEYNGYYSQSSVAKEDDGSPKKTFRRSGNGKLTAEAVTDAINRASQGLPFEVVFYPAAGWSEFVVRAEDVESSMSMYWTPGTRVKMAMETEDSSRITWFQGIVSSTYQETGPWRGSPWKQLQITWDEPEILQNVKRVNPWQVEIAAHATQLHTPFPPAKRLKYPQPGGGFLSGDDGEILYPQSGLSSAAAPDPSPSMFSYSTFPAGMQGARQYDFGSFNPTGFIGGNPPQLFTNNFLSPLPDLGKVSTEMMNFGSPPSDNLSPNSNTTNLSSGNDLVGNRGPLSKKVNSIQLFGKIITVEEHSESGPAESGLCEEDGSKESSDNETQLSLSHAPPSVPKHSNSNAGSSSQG
Chain of UniProt O24407 (whole entry, looked up): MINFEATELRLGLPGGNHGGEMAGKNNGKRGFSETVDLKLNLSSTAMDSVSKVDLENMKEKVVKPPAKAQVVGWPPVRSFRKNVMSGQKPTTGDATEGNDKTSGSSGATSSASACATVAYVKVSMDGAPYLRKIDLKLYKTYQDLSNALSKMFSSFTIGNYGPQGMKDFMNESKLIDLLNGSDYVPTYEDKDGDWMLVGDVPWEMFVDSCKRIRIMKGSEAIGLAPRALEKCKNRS

Set 1
Molecule: B1 (IAA11)
Technique: two-hybrid
Notes: weak activation fusion
Reading: higher = firmer interaction
B1: IAA11 (Arabidopsis thaliana, UniProt Q38829); chain MEGGSASGSASALSNDENLVVSCEDSSSPIGNELELGLTLSLGRKGYRDCRVYADDSSSSSSSSSLSRASVIAGIKRTADSMAATSGQVVGWPPIRTYRMNSMVNQAKASATEDPNLEISQAVNKNRSDSTKMRNSMFVKVTMDGIPIGRKIDLNAHKCYESLSNTLEEMFLKPKLGSRTLETDGHMETPVKILPDGSSGLVLTYEDKEGDWMLVGDVPWGMFIGSVRRLRIMKTSEATGKAQMIL
ARF19 948-1086 (Arabidopsis thaliana, UniProt Q8RYC8); reference: out of 4 tests — positive tests: 0.
For ARF17 (Arabidopsis thaliana, UniProt Q84WU6); reference: out of 1 tests: positive tests read 0.
The positive tests was 0 (IAA29 (Arabidopsis thaliana, UniProt Q93WC4); reference: out of 4 tests).
IAA16 (Arabidopsis thaliana, UniProt O24407); reference: out of 4 tests — positive tests: 2.

Set 2
Target: Prothrombin, mature alpha-thrombin (F2, Homo sapiens, UniProt P00734)
Technique: aptamer microarray, sandwich
Molecule type: DNA with 2'F-ANA
Sample: in vitro
Tested at: 200 nM
Notes: whole 15-mer aptamer, many near background
With: Cy3 exosite-II aptamer, 400 nM
Reading: higher = stronger binding
Strand: GGTTGGTGTGGTTGG
`2'F-ANA at 5 7 8 11 12` — result for “mean fluorescence intensity”: 158 a.u.
Under “mean fluorescence intensity”, `2'F-ANA at 2 3 4 6 8 10 11 14 15` is recorded as 161 a.u.
`2'F-ANA at 2 3 5 7 8 9 10 11 13 14 15`: “mean fluorescence intensity” 57.8 a.u.
For `2'F-ANA at 2 4 6 8 10`, “mean fluorescence intensity” read 101 a.u.
`2'F-ANA at 1 4 5 7 10 11 12 13 14`: “mean fluorescence intensity” 255 a.u.
For `2'F-ANA at 2 3 4 5 6 8 9 10 11 12 13`, “mean fluorescence intensity” read 52.5 a.u.
For `2'F-ANA at 1 3 5 7 8 9 15`, “mean fluorescence intensity” read 73.3 a.u.
`2'F-ANA at 2 3 7 9 13 15` — result for “mean fluorescence intensity”: 654 a.u.
`2'F-ANA at 2 3 4 5 9 10 13` — result for “mean fluorescence intensity”: 50 a.u.
For `2'F-ANA at 2 3 4 5 6 7 11 12 13 15`, “mean fluorescence intensity” read 110 a.u.
Under “mean fluorescence intensity”, `2'F-ANA at 4 7 8 9 11 12 13 15` is recorded as 347 a.u.
`2'F-ANA at 4 7 9 12 13 14` — result for “mean fluorescence intensity”: 100 a.u.
`2'F-ANA at 1 3 5 6 7 8 9 12 14 15`: “mean fluorescence intensity” 83.6 a.u.
`2'F-ANA at 3 4 7 8 10 11 12 14`: “mean fluorescence intensity” 231 a.u.
For `2'F-ANA at 1 2 3 6 8 11 15`, “mean fluorescence intensity” read 192 a.u.
`2'F-ANA at 1 9 13`: “mean fluorescence intensity” 137 a.u.
For `2'F-ANA at 5 8 13 14`, “mean fluorescence intensity” read 46 a.u.
Under “mean fluorescence intensity”, `2'F-ANA at 1 2 3 4 5 6 11 12 13 14` is recorded as 66.4 a.u.
Under “mean fluorescence intensity”, `2'F-ANA at 1 3 4 5 9 10 14 15` is recorded as 49.7 a.u.
For `2'F-ANA at 1 4 5 6 11 13`, “mean fluorescence intensity” read 51 a.u.
Under “mean fluorescence intensity”, `2'F-ANA at 1 2 3 4 5 7 9 11 12 15` is recorded as 121 a.u.

Set 3
Target: Hepatocyte nuclear factor 3-alpha (Foxa1, Mus musculus, UniProt P35582, residues 1-468, full length assumed)
Chain of UniProt P35582 (whole entry, looked up): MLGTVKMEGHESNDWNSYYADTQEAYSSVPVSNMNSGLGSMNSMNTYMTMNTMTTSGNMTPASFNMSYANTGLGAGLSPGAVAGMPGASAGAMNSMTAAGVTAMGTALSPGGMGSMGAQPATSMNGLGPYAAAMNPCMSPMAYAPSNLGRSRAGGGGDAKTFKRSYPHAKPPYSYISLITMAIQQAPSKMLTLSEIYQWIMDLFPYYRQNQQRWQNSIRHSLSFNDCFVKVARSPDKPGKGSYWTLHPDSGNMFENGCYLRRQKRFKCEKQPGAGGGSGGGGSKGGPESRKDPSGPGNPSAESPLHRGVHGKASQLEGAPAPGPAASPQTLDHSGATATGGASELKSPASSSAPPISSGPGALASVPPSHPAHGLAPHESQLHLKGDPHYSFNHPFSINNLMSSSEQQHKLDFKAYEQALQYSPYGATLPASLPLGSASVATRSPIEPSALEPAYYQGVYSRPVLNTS
Technique: EMSA with sequencing
Molecule type: double-stranded DNA, one strand shown
Sample: in vitro
Tested at: 10 and 20 nM
Notes: whole designed probe, mean of two concentrations, ends assumed
Reference: negative control set to 0
Reading: higher = stronger binding
`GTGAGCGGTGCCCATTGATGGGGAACATCTTCCCCCTCTTCCTTGCCCCACCAGCTCACCTTCCCGGGTATCTGCAAATAAGTATTTATTTTCAAGCCGGCATTCGTTAACCCTCTTCTGGCGCAAACTGCCAGAGCAAACAGATGAATCATGGTCCTTTGGCGACGCCAGGCTCCGGGAGAGCAAAGCACCGTGTCAGGGCCATGATCCGGGGTGGCCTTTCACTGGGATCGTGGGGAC`: “normalised bound fraction” 0.246 ratio.
Under “normalised bound fraction”, `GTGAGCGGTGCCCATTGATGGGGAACCAGACAACTCTATTTGAATATGAAAATTTCAACTTTAAACCTCTGAACTCTGCTGGGTCTGCAGAGGCGTTTTAATGTCAACCTCAGGAAATGTACTCTTGAAGCAGAATTTACAACTCATCACTGTCACAGTTAGATTAGAGTGTGAGTTAAAGAGTAATACATTAACCAGGGTTAGTGCATGGAGATTGTTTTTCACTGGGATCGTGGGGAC` is recorded as 0.0119 ratio.
For `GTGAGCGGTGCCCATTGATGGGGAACGATTTTTCTAGGAAATTACAGGTTTTTTTTTAAATCAAGACCATTGGTATATAGCTGTGCAGTATTTTCTGTATTAATTAAAAATTTCCCTCAAAATTACTTTCATATCCCTTTATCCATTTTTAAATTTATGTAACCCAAATGTTACAGTCTCATGAGGTCAGAGTCTCATTAAGAAAAAATCCTGCATTTTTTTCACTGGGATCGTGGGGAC`, “normalised bound fraction” read -0.0529 ratio.
`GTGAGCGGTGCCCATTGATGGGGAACTAAGCTTACACTACACCATGCTAGGGAAGAGAATAGGTCATTTCCAGGTGTCTCTGTATGGAAAAGAGAATGTTTTCCTTTCCAGTAGCTTAAGTAATCTTCAAGTTTCATTGGCTCTGTTAGGGCTATTTTCATTTATTTCTGAACAAATGATCAGGATACACTAACTGTAGAGCCAATCACATTGTAACTATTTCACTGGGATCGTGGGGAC` — result for “normalised bound fraction”: -0.0352 ratio.
`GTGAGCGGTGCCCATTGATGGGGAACCTTGTTGTTCAACTTGGAGCAAATGCTCTGTTTATCATGTTGTCTTGAGAGGGGCCACAGCTAGGCATTCCAGCCCAGCAGTGTGGCCTTATGTAAACATGGGTGGTTGAAAGTGATGGGATAAGGAAGCCAAAACTACCAACAGAGATGAGATTTTTCTGTATTTTATTCTTCCTGAGCAGCAGAGCCCGTGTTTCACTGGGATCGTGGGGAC`: “normalised bound fraction” 0.505 ratio.

Set 4
Target: Interferon regulatory factor 5, full length, phosphomimetic (IRF5, Homo sapiens, UniProt Q13568-2, residues 1-514, S451D/S453D/S456D/S462D)
Technique: protein-binding microarray
Molecule type: double-stranded DNA, one strand shown
Sample: in vitro
Tested at: 940 nM top
Notes: 60-bp whole probe
With: salmon DNA 0.4 mg/ml
Reference: random background probes
Reading: higher = stronger binding
Constant ends, left off below: GCCTAGCAC … GTCTTGATTCGCTTGACGCTGCTG
`TCACAGTTGAGTTCTGTTACTGTGCTA` — result for “fitted relative affinity”: 0.125 z-score.
`GACGGTATCGGGTATCGAGACGTGCTA` — result for “fitted relative affinity”: 4.93 z-score.
`TTAGGATTGGGTCTCGGTTAGTGCTAG`: “fitted relative affinity” 1.9 z-score.
For `TTAGATTCCAGTTTCCATTAGTGCTAG`, “fitted relative affinity” read 1.55 z-score.
`GACGGACTGGGGACTTGGGACGTGCTA` — result for “fitted relative affinity”: -0.312 z-score.
For `TGGGGTTCACTCCGGTACCCGTGCTAG`, “fitted relative affinity” read -0.577 z-score.
Under “fitted relative affinity”, `AACTCTTTGCAGATAAATACGTGCTAG` is recorded as -0.0172 z-score.
`TCTGGGCCTCCATCATCTGTGTGCTAG` — result for “fitted relative affinity”: -0.382 z-score.
`CCTGTAATCCCAGCTACTCAGTGCTAG`: “fitted relative affinity” 0.324 z-score.
For `GTCGATTTCAGTTCCGAGACGTGCTAG`, “fitted relative affinity” read 2.2 z-score.
For `TGTGCATGTGTGTTTTCTGCGTGCTAG`, “fitted relative affinity” read -0.0615 z-score.
`TTAGGTATGGACTATCGGTTAGTGCTA` — result for “fitted relative affinity”: -0.00308 z-score.
Under “fitted relative affinity”, `GACAATCTCAGTCTCGAGACGTGCTAG` is recorded as 1.53 z-score.
`GACGGTCTCGGACTGTGGACGTGCTAG` — result for “fitted relative affinity”: 0.58 z-score.
For `TGAGGTATCCTTTTCCTTTAGTGCTAG`, “fitted relative affinity” read 0.414 z-score.
For `GACGAACTGAGTCTCGTGACGTGCTAG`, “fitted relative affinity” read -0.166 z-score.
`TTATAACTGAGACTGGATTAGTGCTAG` — result for “fitted relative affinity”: 0.145 z-score.
Under “fitted relative affinity”, `TTAGATATGAGACTGGATTAGTGCTAG` is recorded as -0.0396 z-score.
For `GACGGTATCGGGACTGAGGACGTGCTA`, “fitted relative affinity” read 2.94 z-score.

Set 5
Target: Ras GTPase-activating protein-binding protein 1, full length (G3BP1, Homo sapiens, UniProt Q13283)
Chain of UniProt Q13283 (whole entry, looked up): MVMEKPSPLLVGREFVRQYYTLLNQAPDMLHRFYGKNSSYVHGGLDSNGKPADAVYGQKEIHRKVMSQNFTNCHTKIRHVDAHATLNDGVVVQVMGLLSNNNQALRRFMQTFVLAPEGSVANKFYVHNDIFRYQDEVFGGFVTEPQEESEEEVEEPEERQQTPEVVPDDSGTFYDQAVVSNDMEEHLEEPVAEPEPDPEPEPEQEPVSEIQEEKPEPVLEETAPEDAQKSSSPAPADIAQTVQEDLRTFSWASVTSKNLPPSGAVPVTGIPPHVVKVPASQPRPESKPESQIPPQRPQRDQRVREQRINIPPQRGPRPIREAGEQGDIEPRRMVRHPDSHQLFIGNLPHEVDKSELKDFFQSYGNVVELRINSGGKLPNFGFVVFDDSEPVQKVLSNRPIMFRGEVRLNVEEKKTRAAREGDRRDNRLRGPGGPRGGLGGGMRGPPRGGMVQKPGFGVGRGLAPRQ
Technique: RNA Bind-n-Seq
Molecule type: RNA
Sample: in vitro
Tested at: 200 nM
Notes: whole 134-nt RNA, ends assumed
With: 150 mM LiCl
Reference: input library
Reading: higher = stronger binding
All molecules: 7-deaza-guanosine replaces G
For `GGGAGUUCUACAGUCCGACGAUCCACAGACAACACGCACCCACACAGACACAGAGGGAAGGGAAAGGGAUGGGGACAGGGUGCACAGCAGGGCGGGGUAGGACCCCAGCCCCUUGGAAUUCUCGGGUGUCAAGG`, the log2 enrichment was -0.518.
For `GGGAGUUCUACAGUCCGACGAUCUGUGCGGGAGACAGGCGCCAACGGCACCUCUUUCAGUGUCCGCAAGACAGCCUACUGCGACAUCCACACGCCUCCAGGUUCAGCACGCCGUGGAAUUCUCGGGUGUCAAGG`, the log2 enrichment was -0.299.
`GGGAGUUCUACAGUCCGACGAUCUAGUGAAAUUUCUAAUAUAUAUAUUUUUUUCUUUAGGAGAAGAAACGAAUGCAUCAGAUCAACAGAAUGAACCCCAGUUAGGCCUGAAAGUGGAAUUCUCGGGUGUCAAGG` has a log2 enrichment of -2.34.
With `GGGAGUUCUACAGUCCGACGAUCCCUCAAGUCCUGUGCUACACAUCGUAUGUACCGAAUCGGUUGGGUUGGUUGGGAAAGUAUUAUGUUACGCCGUUCGGAUCUGCACUUCCAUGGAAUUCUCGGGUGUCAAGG` the log2 enrichment was 0.256.
`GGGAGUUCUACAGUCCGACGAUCGGAGUGCCGUGAGCAGGCCGCGGGAACGUCGCCGUCACCUUGUCUCGGGGCCUCGGCGCUGCUUCCCGCCAAAACACGUUUACCGCGCGCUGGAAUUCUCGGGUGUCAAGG` gave a log2 enrichment of -1.36.
`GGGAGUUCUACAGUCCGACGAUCCACAGACAACACGCACCCACACAGACACAGAGGGAAGGGGUUGGGAUGGGGACAGGGUGCACAGCAGGGCAGGGUAGGACCCCAGCCCCUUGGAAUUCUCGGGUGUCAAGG` gave a log2 enrichment of 0.363.
With `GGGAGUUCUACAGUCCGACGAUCUGGCCCUGGUGGCAUGCGGGGAGGAAGAGGUGGCCUCAUGGAUCGUGGUGGUCCCGGUGGAAUGUUCAGAGGUGGCCGUGGUGGAGACAAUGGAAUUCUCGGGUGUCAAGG` the log2 enrichment was 0.391.
For `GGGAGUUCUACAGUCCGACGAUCUCCUGUGCUACACAUCGUAUGUACCGAAUCGGGGCCCCCCGGGCCCCCCGGCCCCCCGGAAAGUAUUAUGUUACGCCGUUCGGAUCUGCAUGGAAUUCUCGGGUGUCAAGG`, the log2 enrichment was 0.227.
